# Measured values pooled from the literature.
# Protocols differ between the studies behind these lines. Several values in a cell are separate wells, animals, samples, runs or records.
SMILES,organism,test,test system,conditions,scale,measurement,value
CC(C)n1ncc2c(C(=O)NCC3(C)CNC3)cc(C3CC3)nc21,Enterovirus D68,cytopathic effect,"RD, US/IL/14-18952",50 nM,,cell protection,-1.08% and -1.22%
COc1ccc(Nc2cnnc3cc(-c4cnc(N5CCCN(C)CC5)nc4)ccc23)cc1Cl,Schistosoma mansoni,,adult worms,"10 µM, 48 h",direction not given,phenotypic severity score,0
CC1=C(Cn2cc(CBr)nn2)C(=O)c2ccccc2C1=O,Schistosoma mansoni,,adult worms,"25 µM, 24 h",,killing,40%
Nc1nc(-c2ccccc2)nc2[nH]nc(Nc3ccc(C(F)(F)F)cc3)c12,coxsackievirus B3,,"31-1-93, NMRI mice, CVB3 chronic myocarditis","oral, 100 mg/kg twice daily, day 24, dosed days 0 to 6, score scale 0 to 7",direction not given,clinical score,0
CN(C)c1ccc(O)c2c1C[C@H]1C[C@H]3[C@H](N(C)C)C(O)=C(C(N)=O)C(=O)[C@@]3(O)C(O)=C1C2=O,Brugia malayi,,SCID mouse,"x28d dosing, 6 weeks post-treatment",,mice with adult worms,60%
COc1ccc(Nc2cnnc3ccc(-c4cnc(N5CCN(C)CC5)nc4)cc23)cc1Cl,Schistosoma mansoni,,adult worms,"10 µM, 24 h",direction not given,phenotypic severity score,0
CC1=C(Cn2cc(COC3COC3)nn2)C(=O)c2ccccc2C1=O,Schistosoma mansoni,,adult worms,"10 µM, 48 h",,killing,47.9%
COc1ccc(Nc2cnnc3ccc(-c4ccc(S(=O)(=O)N5CCN(C)CC5)cc4)cc23)cc1Cl,Schistosoma mansoni,,adult worms,"10 µM, 24 h",direction not given,phenotypic severity score,1
CC1=C(Cc2cn(CCN3CCN(C(=O)OC(C)(C)C)CC3)nn2)C(=O)c2ccccc2C1=O,Schistosoma mansoni,,adult worms,"10 µM, 48 h",,killing,41.6%
C[C@H]1c2cccc(O)c2C(=O)C2=C(O)[C@]3(O)C(=O)C(C(N)=O)=C(O)[C@@H](N(C)C)[C@@H]3[C@@H](O)[C@@H]21,Brugia malayi,,"SCID mouse, peritoneal cavity","dose not given, 6 weeks post-treatment, dosing x42d",,median microfilaria count,0 microfilariae per mouse
CN1CCCN(c2ncc(-c3ccc4nncc(Nc5cnccn5)c4c3)cn2)CC1,Schistosoma mansoni,,adult worms,"10 µM, 24 h",direction not given,phenotypic severity score,0
CC1=C(Cn2cc([Si](C)(C)C)nn2)C(=O)c2ccccc2C1=O,Schistosoma mansoni,,adult worms,"10 µM, 24 h",,killing,39.4%

# Some of these lines once more:
SMILES,organism,test,test system,conditions,scale,measurement,value
CC1=C(Cn2cc(COC3COC3)nn2)C(=O)c2ccccc2C1=O,Schistosoma mansoni,,adult worms,"10 µM, 48 h",,killing,47.9%
CC1=C(Cc2cn(CCN3CCN(C(=O)OC(C)(C)C)CC3)nn2)C(=O)c2ccccc2C1=O,Schistosoma mansoni,,adult worms,"10 µM, 48 h",,killing,41.6%
